# Assay results from different studies.
# Lines come from different studies, so protocols differ. Numbers after ± are the reported error. Non-standard residues stand in square brackets, D forms with d. Square brackets hold non-standard residues; d marks the D form. Ends that are not written are not given here. No end group written: not given here.
# heavy meromyosin HMM: heavy meromyosin HMM (Oryctolagus cuniculus)
# B1: PDHA1/PDHB mature heterotetramer (Homo sapiens); chain 1 FANDATFEIKKCDLHRLEEGPPVTTVLTREDGLKYYRMMQTVRRMELKADQLYKQKIIRGFCHLCDGQEACCVGLEAGINPTDHLITAYRAHGFTFTRGLSVREILAELTGRKGGCAKGKGGSMHMYAKNFYGGNGIVGAQVPLGAGIALACKYNGKDEVCLTLYGDGAANQGQIFEAYNMAALWKLPCIFICENNRYGMGTSVERAAASTDYYKRGDFIPGLRVDGMDILCVREATRFAAAYCRSGKGPILMELQTYRYHGHSMSDPGVSYRTREEIQEVRSKSDPIMLLKDRMVNSNLASVEELKEIDVEVRKEIEDAAQFATADPEPPLEELGYHIYSSDPPFEVRGANQWIKFKSVS; chain 2 LQVTVRDAINQGMDEELERDEKVFLLGEEVAQYDGAYKVSRGLWKKYGDKRIIDTPISEMGFAGIAVGAAMAGLRPICEFMTFNFSMQAIDQVINSAAKTYYMSGGLQPVPIVFRGPNGASAGVAAQHSQCFAAWYGHCPGLKVVSPWNSEDAKGLIKSAIRDNNPVVVLENELMYGVPFEFPPEAQSKDFLIPIGKAKIERQGTHITVVSHSRPVGHCLEAAAVLSKEGVECEVINMRTIRPMDMETIEASVMKTNHLVTVEGGWPQFGVGAEICARIMEGPAFNFLDAPAVRVTGADVPMPYAKILEDNSIPQVKDIIFAIKKTLNI
# B2: NTF3 mature (Homo sapiens, UniProt P20783); chain YAEHKSHRGEYSVCDSESLWVTDKSSAIDIRGHQVTVLGEIKTGNSPVKQYFYETRCKEARPVKNGCRGIDDKHWNSQCKTSQTYVRALTSENNKLVGWRWIRIDTSCVCALSRKIGRT
# B3: CKS1 (Saccharomyces cerevisiae, UniProt P20486); sequence looked up; chain MYHHYHAFQGRKLTDQERARVLEFQDSIHYSPRYSDDNYEYRHVMLPKAMLKVIPSDYFNSEVGTLRILTEDEWRGLGITQSLGWEHYECHAPEPHILLFKRPLNYEAELRAATAAAQQQQQQQQQQQQQQQQHQTQSISNDMQVPPQIS
# B4: BEND3 (Homo sapiens, UniProt Q5T5X7); sequence looked up; chain MNSTEFTEDVEEVLKSITVKVETEAEDAALDCSVNSRTSEKHSVDSVLTALQDSSKRKQLVSDGLLDSVPGVKRRRLIPEALLAGMRNRENSSPCQGNGEQAGRGRSLGNVWPGEEEPCNDATTPSYKKPLYGISHKIMEKKNPPSGDLLNVYELFEKANASNSPSSLRLLNEPQKRDCGSTGAGTDNDPNIYFLIQKMFYMLNTLTSNMSQLHSKVDLLSLEVSRIKKQVSPTEMVAKFQPPPEYQLTAAELKQIVDQSLSGGDLACRLLVQLFPELFSDVDFSRGCSACGFAAKRKLESLHLQLIRNYVEVYYPSVKDTAVWQAECLPQLNDFFSRFWAQREMEDSQPSGQVASFFEAEQVDPGHFLDNKDQEEALSLDRSSTIASDHVVDTQDLTEFLDEASSPGEFAVFLLHRLFPELFDHRKLGEQYSCYGDGGKQELDPQRLQIIRNYTEIYFPDMQEEEAWLQQCAQRINDELEGLGLDAGSEGDPPRDDCYDSSSLPDDISVVKVEDSFEGERPGRRSKKIWLVPIDFDKLEIPQPDFEVPGADCLLSKEQLRSIYESSLSIGNFASRLLVHLFPELFTHENLRKQYNCSGSLGKKQLDPSRIKLIRHYVQLLYPRAKNDRVWTLEFVGKLDERCRRRDTEQRRSYQQQRKVHVPGPECRDLTSYAINPERFREEFEGPPLPPERSSKDFCKIPLDELVVPSPDFPVPSPYLLSDKEVREIVQQSLSVGNFAARLLVRLFPELFTAENLRLQYNHSGACNKKQLDPTRLRLIRHYVEAVYPVEKMEEVWHYECIPSIDERCRRPNRKKCDILKKAKKVEK
# B5: adcC/mCherry full length, C-terminal mCherry (Dictyostelium discoideum); sequence looked up; chain MTQRSLKINIIEGKDLKGLDSGGVSDCYVKFKCGPISAKTEVIKKSTSPIWNYMINIGNVEENTLLQFECFDWERIGNNRTMGKTQAFVSDLSSGAKRNLMDQWLRLDTKGFIRISYEFTPPYPLETESTNSPNLSVVGNGSSSSSSLMYNPTPVYFKPIFLPTIPSETINNNKSTTCHFLIPGSVYQTRPFVCGEFVNCSLVLNVFEARIVVRSLNLSFSGSITYKGKKQRKLVNDYRDLLLGFTGGVPVPNNNGNNNLTSNKVVLERGKHVFPFQFFIDKTCKSTVNLTDYKVNYYLSFHADIVNQPDISASQEIKVVNLEDTVYKQTISPINAQTSKSPLTGGNISISCKSVKNSFYPGEEIELEVEVNNSSKKKIKNVDIQLNKVEYDGTDVTGTSYQLLTMTKKFYPKIKQNTACKQMVVIELPSTTQCVGLIHSIAETKMIRVEYHLLVNLDIPSCVDLRLKLPITIVQPDPKFETLPNPLTEIGNLPRYVKDWSIKNFHSWVLFKKQCPDVMALNPEFYQYNLSGSDLMQLPTETLYSIFKGAGPRTQELVNDLQSQIFEIKLVRNFLKELQLSNLIDYFEKQTITWDILLQLNYNEIFSITDITIGDAKRIFLKIQQIQSERQKQQEQQEQQVVSNLEAVSLQKSE
# B6: BDKRB1 (Homo sapiens, UniProt P46663); chain MASSWPPLELQSSNQSQLFPQNATACDNAPEAWDLLHRVLPTFIISICFFGLLGNLFVLLVFLLPRRQLNVAEIYLANLAASDLVFVLGLPFWAENIWNQFNWPFGALLCRVINGVIKANLFISIFLVVAISQDRYRVLVHPMASRRQQRRRQARVTCVLIWVVGGLLSIPTFLLRSIQAVPDLNITACILLLPHEAWHFARIVELNILGFLLPLAAIVFFNYHILASLRTREEVSRTRCGGRKDSKTTALILTLVVAFLVCWAPYHFFAFLEFLFQVQAVRGCFWEDFIDLGLQLANFFAFTNSSLNPVIYVFVGRLFRTKVWELYKQCTPKSLAPISSSHRKEIFQLFWRN
# B7: CCL21 mature, 1-111 (Homo sapiens, UniProt O00585); sequence looked up; chain SDGGAQDCCLKYSQRKIPAKVVRSYRKQEPSLGCSIPAILFLPRKRSQAELCADPKELWVQQLMQHLDKTPSPQKPAQGCRKDRGASKTGKKGKGSKGCKRTERSQTPKGP
# Sequence of UniProt P15873 (whole entry, looked up): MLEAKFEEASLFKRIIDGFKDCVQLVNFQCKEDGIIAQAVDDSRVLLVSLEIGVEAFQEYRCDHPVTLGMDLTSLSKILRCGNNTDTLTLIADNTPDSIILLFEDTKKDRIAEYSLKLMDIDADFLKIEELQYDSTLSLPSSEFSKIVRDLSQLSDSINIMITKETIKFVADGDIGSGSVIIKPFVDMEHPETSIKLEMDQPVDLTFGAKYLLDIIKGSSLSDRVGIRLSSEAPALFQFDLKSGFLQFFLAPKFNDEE
# Sequence of UniProt Q02763 (whole entry, looked up): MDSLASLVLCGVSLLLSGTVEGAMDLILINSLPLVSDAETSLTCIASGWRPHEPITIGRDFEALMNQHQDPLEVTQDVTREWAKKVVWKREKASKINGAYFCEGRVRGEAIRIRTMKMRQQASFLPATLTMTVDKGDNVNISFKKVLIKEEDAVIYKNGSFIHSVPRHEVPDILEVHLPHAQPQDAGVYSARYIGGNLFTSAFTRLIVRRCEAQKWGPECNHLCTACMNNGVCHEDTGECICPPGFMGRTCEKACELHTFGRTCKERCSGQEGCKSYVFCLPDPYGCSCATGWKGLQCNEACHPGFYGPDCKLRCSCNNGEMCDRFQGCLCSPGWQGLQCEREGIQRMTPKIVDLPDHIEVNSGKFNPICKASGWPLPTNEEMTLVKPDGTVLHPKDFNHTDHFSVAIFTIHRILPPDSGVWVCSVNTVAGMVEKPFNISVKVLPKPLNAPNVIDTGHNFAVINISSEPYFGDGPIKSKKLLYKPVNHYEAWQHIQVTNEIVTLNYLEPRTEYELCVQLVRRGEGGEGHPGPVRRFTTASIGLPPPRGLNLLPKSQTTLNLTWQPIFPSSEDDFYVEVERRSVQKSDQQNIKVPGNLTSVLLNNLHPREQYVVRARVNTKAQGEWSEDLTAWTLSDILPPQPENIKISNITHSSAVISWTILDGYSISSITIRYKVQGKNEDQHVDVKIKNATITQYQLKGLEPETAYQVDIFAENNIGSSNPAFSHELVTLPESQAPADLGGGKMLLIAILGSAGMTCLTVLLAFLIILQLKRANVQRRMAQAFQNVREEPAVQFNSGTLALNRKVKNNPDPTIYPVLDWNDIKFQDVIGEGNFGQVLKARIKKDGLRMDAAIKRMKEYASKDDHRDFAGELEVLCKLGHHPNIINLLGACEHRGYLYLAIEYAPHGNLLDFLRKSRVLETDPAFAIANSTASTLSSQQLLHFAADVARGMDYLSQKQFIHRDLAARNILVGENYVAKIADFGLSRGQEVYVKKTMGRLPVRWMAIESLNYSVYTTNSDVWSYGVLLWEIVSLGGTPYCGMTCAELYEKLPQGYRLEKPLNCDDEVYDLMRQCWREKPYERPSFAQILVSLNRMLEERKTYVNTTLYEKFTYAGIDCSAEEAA
# Sequence of UniProt Q62083 (whole entry, unmodified, looked up): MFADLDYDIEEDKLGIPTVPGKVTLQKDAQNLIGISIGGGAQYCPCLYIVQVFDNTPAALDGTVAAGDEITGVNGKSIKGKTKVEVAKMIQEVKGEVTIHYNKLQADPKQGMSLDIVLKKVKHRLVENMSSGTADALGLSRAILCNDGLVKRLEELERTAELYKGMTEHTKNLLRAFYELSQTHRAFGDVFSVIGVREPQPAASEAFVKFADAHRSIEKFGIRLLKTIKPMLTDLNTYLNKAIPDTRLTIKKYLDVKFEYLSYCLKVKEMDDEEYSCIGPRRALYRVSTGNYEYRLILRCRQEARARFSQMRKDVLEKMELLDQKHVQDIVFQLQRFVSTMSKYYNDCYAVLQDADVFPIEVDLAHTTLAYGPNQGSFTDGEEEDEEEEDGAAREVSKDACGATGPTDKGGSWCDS
# Sequence of UniProt P29597 (whole entry, looked up): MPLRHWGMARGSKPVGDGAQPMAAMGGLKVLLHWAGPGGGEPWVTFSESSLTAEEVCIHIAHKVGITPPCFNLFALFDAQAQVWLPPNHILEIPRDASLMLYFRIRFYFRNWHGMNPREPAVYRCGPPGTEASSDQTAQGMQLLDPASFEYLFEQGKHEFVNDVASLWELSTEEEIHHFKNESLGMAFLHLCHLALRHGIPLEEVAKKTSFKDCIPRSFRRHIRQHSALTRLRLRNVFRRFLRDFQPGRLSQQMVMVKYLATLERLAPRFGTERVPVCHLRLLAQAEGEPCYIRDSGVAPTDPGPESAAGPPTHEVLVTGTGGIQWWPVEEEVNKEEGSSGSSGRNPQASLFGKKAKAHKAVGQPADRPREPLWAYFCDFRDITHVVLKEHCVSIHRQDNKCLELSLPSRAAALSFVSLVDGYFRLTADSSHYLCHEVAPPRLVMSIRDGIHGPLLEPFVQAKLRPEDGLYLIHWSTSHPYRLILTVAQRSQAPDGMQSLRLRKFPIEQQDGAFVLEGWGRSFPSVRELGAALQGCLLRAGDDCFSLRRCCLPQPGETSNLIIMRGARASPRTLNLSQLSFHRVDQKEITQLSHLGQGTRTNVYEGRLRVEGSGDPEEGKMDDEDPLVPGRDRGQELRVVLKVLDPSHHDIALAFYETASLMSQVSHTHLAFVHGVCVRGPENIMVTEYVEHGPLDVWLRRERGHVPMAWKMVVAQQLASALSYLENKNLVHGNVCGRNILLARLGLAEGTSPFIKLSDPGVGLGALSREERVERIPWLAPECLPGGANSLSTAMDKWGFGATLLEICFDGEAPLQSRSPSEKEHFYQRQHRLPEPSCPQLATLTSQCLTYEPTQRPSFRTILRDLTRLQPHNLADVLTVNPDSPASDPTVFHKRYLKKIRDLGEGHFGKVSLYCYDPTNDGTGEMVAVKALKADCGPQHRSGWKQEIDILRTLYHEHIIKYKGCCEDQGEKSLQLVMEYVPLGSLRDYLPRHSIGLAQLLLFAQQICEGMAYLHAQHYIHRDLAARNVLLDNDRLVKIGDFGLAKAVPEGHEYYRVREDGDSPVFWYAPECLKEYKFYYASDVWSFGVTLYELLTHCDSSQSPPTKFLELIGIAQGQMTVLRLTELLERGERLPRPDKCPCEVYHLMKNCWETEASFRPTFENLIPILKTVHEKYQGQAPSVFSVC
# Sequence of UniProt P09038 (whole entry, looked up): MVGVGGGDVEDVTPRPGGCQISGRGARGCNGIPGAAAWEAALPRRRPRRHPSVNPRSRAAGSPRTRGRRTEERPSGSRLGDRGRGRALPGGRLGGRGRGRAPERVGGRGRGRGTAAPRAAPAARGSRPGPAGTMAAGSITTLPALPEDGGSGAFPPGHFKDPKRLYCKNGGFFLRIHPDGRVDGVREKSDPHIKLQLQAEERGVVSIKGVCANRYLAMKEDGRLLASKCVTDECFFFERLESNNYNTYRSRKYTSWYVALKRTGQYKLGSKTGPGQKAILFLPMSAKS
# Sequence of UniProt P29350 (whole entry, unmodified, looked up): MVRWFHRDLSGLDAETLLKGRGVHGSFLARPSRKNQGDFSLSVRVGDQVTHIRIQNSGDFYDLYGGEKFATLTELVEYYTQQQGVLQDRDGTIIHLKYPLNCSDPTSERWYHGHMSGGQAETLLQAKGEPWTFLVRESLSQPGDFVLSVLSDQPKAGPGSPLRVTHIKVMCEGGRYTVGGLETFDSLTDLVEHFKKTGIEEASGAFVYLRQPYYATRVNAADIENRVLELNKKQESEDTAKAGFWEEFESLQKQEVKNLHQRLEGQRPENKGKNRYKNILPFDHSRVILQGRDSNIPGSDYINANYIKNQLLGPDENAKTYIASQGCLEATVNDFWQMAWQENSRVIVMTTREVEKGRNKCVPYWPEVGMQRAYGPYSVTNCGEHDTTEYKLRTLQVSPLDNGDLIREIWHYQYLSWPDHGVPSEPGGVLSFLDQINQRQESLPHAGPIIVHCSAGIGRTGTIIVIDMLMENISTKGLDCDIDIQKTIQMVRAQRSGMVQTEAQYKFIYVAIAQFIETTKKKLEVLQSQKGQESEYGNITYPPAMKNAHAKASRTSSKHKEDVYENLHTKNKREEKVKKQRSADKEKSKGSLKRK
# Sequence of UniProt P06400 (whole entry, unmodified, looked up): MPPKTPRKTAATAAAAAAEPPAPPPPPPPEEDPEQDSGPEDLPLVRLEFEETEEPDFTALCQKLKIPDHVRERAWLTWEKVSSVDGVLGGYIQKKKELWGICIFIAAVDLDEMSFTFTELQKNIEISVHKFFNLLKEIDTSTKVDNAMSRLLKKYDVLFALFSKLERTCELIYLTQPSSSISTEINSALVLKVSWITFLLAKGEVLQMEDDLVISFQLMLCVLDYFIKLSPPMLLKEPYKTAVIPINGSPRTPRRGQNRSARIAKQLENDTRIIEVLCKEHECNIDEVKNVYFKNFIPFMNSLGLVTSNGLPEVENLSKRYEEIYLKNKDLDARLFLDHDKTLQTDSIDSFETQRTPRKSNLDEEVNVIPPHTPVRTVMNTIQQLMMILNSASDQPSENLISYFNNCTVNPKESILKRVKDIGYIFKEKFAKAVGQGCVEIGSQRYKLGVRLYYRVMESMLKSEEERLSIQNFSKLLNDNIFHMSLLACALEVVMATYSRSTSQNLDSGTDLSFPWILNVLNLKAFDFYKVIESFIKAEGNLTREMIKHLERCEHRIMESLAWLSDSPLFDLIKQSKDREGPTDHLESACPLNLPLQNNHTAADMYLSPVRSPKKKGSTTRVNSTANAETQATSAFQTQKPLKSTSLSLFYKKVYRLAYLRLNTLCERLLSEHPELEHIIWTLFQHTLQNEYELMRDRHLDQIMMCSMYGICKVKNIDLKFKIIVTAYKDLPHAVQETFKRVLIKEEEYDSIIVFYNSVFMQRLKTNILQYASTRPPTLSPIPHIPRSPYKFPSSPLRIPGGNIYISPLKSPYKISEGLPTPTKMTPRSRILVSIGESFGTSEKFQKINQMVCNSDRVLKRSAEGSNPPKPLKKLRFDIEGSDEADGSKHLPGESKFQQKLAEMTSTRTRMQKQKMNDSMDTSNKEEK
Molecule,partner,assay,system,setting,scale,endpoint,result
ETDKE[pY][pY]TVKD (JAK1 1029-1039; pY1034/pY1035; pY = N[C@@H](Cc1ccc(OP(=O)(O)O)cc1)C(=O)O),"PTPN6 243-530 Q252R/C453S (Homo sapiens, UniProt P29350)",ITC,peptide,,,ΔH,-17.4 ± 0.4 kcal/mol
"ubiquitin I36A, Cy3B label",MYCBP2 4378-4640 C4520K (Homo sapiens),E2-E3 isopeptide formation,,single turnover,,decrease of RCR activity,50 % decrease
GRGDSP (GRGDSP peptide),ITGA5/ITGB1 whole (Homo sapiens),"competition with ligand, radioligand binding",peptide,,,IC50,5500 nM
KKAVK[pS]PAKAKAW (histone H1.1 residues 178-189 (Homo sapiens); pS183; pS = N[C@@H](COP(=O)(O)O)C(=O)O),"PIN1 (Homo sapiens, UniProt Q13526)",EXSY NMR,peptide,"1 mM peptide, 25 °C",,exchange rate constant,6.2 s⁻¹
"FGF2 (Homo sapiens, UniProt P09038)","FGFR3 isoform IIIc (unknown, UniProt Q61851)","cell proliferation, MTT",BaF3-FGFR3c,"20 nM, 48 h, with: chondroitin sulfate C 4.9 µg/mL","relative to: FGF 1 with heparin, higher = more proliferation",cell proliferation,2%
DnaA (Caulobacter crescentus),ClpA/ClpP ClpA lacking C-terminal 9 residues (Caulobacter crescentus),steady-state kinetics,,30 °C,,KM,13 µM
"IDEYFSEQPLKNLLLSTSAAQIEKCFIIENISTIA (IFNAR1 478-512 E496A/E497A (Homo sapiens, UniProt P17181))","TYK2 23-583 (Homo sapiens, UniProt P29597)",differential scanning fluorimetry,peptide,,,apparent Tm reduction,> 5 °C
LCMT1 fragment T29V (Homo sapiens),PPP2R1A/PPP2CA A-C core dimer 1-589 (Homo sapiens),"phosphatase activity, inhibitor",,,"relative to: wild type LCMT-1, higher = stronger inhibition",inhibition efficacy,4 fold
"ANGPT1 (Homo sapiens, UniProt Q15389)","TEK whole (Homo sapiens, UniProt Q02763)","staurosporine-induced apoptosis, Cell Death Detection ELISA",human myogenic precursor cells,500 ng/mL,,protection from apoptosis,51%
B1,DLAT/PDHX mature 60-mer core (Homo sapiens),"NADH formation, stopped-flow light scattering",,"apparent, koff calculated",,koff,0.04 s⁻¹
TUBG1/TUBGCP2/TUBGCP3/TUBGCP4/TUBGCP5/TUBGCP6 complex (Homo sapiens),"CDK5RAP2 I104A/E105A (Homo sapiens, UniProt Q96SN8)",co-IP,HEK293T,not purified,"relative to: wild-type full-length CDK5RAP2, higher = more binding",γTuRC-binding activity,12 fold
B2 (NTF3 mature),NTRK3 extracellular and transmembrane domains (Homo sapiens),FRET,,380 nM,"relative to: without ligand, higher = more stable dimer",dimer stability change,-1.49 kcal/mol
RFC1/RFC2/RFC3/RFC4/RFC5 (Saccharomyces cerevisiae),"POL30 (Saccharomyces cerevisiae, UniProt P15873)",release after ATP hydrolysis,,global fit,,rate constant of PCNA release,1.7 s⁻¹
B3 (CKS1),"Cdc6 2-29 P5K, pT7 (UniProt P09119)",steady-state kinetics,,,"relative to: wild-type peptide, higher = weaker substrate affinity",KM,3 fold
ITGA5/ITGB1 (Mus musculus),"Fn1 (Rattus norvegicus, UniProt P04937)",mesangial cell adhesion,mesangial cells,"60 min, high glucose","relative to: normal glucose, higher = more adhesion",cell adhesion,2 fold
B4 (BEND3),"ERCC6L E11A/L13A/Y21A (Homo sapiens, UniProt Q2NKX8)",MST,,,"relative to: wild-type full length PICH, higher = weaker binding",relative Kd,1.5 fold
"CALM1 T26C, Alexa Fluor 568 at C26 (sequence not shown)",Camk2d T287A (Rattus norvegicus),FRET,,100 nM,,donor fluorescence lifetime,2.4 ns
"AR (Homo sapiens, UniProt P10275)","JUND (Homo sapiens, UniProt P17535)",co-IP,"LNCaP, nuclear extract",with: R1881 1 nM,"relative to: untreated cells, higher = more complex",increase in AR-JunD complex,3 fold
CFH mature protein V62I (Homo sapiens),C3b (UniProt P01024),fI-mediated C3b cleavage,,fluid phase,"relative to: fH-Val62, higher = more cofactor activity",cofactor activity,20%
myo1 fragment (Schizosaccharomyces pombe),Arp2/3 complex (Schizosaccharomyces pombe),"barbed end yield, activator",,with and without verprolin,,half-maximal concentration,150 nM
RFC1/RFC2/RFC3/RFC4/RFC5 RFC1 284-end (Saccharomyces cerevisiae),"POL30 1-258 cysteine at 43, MDCC label (Saccharomyces cerevisiae, UniProt P15873)",fluorescence titration,,"400 nM, NaCl 150 mM, no ATP",,fraction bound,> 75%
B5,"carA-1 (Dictyostelium discoideum, UniProt P13773)",co-IP,membrane fractions,"in cells, with: cAMP 0 or 50 µM","relative to: unstimulated cells, higher = more co-precipitated",co-precipitation increase,2.5 fold
Tnfrsf11b CRD (Mus musculus),"Tnfsf11 162-316 (Mus musculus, UniProt O35235-1)",SPR,,,"relative to: RANK, higher = slower dissociation",relative off-rate,20 fold
MYSSTDHILNKFLILHYALNPT (peptide),CD274 extracellular domain (Homo sapiens),BLI,peptide,,,koff,0.00146 s⁻¹
"NDC80/NUF2 truncated, GFP-fused (Homo sapiens)",TUBA1B/TUBB2B taxol-stabilized microtubules,"residence times, single-molecule TIRF microscopy",,30 °C,,koff,0.53 s⁻¹
SLC27A4 AMP-binding domain to C-terminus,"RPE65 (Homo sapiens, UniProt Q16518)",HPLC,293T-LC,"4 hours, normalised by RPE65 expression, with: all-trans-retinol 7 µM","relative to: pRK control, higher = stronger inhibition",inhibition of 11-cis-retinol synthesis,30%
"CCND1/CDK6 fusion, linker (Homo sapiens)","RB1 F897A/L901A/R908A (Homo sapiens, UniProt P06400)",in vitro kinase assay,,,"relative to: wild-type Rb, higher = greater difference",Rb phosphorylation,17 fold
B6 (BDKRB1),"BDKRB2 (Homo sapiens, UniProt P30411-2)",radioligand binding,,,higher = more loss,loss of surface receptor,50%
ACTC1 R312C (x),heavy meromyosin HMM,in vitro motility assay,,"model fit, with: alpha-actinin",,frictional load,336 pN
"ITGB1 whole (Gallus gallus, UniProt P07228)","laminin (Mus musculus, UniProt P19137)",neuron attachment,E8 CG neurons,"90 min, 37 °C, no antibody","relative to: poly-D-lysine, higher = more attachment",attachment,87%
SERPINC1 R45E/R46E/K114E/R129E (Homo sapiens),coagulation factor IXa,steady-state kinetics,,"room temperature, no heparin",,k2,59 M⁻¹ s⁻¹
"AEBP2 (Homo sapiens, UniProt Q6ZN18)","SUZ12 F99A/R103A/L105A/I106A (Homo sapiens, UniProt Q15022)",affinity purification mass spectrometry,"hiPSC, lysate",,"relative to: WT SUZ12, higher = less enriched",enrichment,53 fold
"ACTC1 (Homo sapiens, UniProt P68032)",heavy meromyosin HMM,in vitro motility assay,,"model fit, with: alpha-actinin",,frictional load,249 pN
WWC1 C-terminal truncation (Mus musculus),"Pick1 (Mus musculus, UniProt Q62083)",co-IP,HEK293T,,"relative to: wild-type KIBRA, higher = more binding",relative co-precipitation,2.49 fold
"B7 (CCL21 mature, 1-111)","CCR7 (Homo sapiens, UniProt P32248)","cAMP inhibition, agonist, BRET",CHO,,,EC50,20.2 nM

# Some of these lines once more:
Molecule,partner,assay,system,setting,scale,endpoint,result
"AR (Homo sapiens, UniProt P10275)","JUND (Homo sapiens, UniProt P17535)",co-IP,"LNCaP, nuclear extract",with: R1881 1 nM,"relative to: untreated cells, higher = more complex",increase in AR-JunD complex,3 fold
B3 (CKS1),"Cdc6 2-29 P5K, pT7 (UniProt P09119)",steady-state kinetics,,,"relative to: wild-type peptide, higher = weaker substrate affinity",KM,3 fold
CFH mature protein V62I (Homo sapiens),C3b (UniProt P01024),fI-mediated C3b cleavage,,fluid phase,"relative to: fH-Val62, higher = more cofactor activity",cofactor activity,20%
